{"data": "Experimental data pooled from the literature", "dxs": "1-deoxy-D-xylulose-5-phosphate synthase (dxs, Deinococcus radiodurans, UniProt Q9RUB5)", "Cytochrome P450 2A13": "Cytochrome P450 2A13 (Homo sapiens, UniProt Q16696)", "kptA": "kptA (Runella slithyformis, UniProt A0A7U3ZK32)", "note": "Each line is one published result; not all experiments were run side by side. Several values in a cell are separate wells, animals, samples, runs or records. Numbers after ± are the reported error."}
{"Molecule": "NC(=O)c1nc(Cl)c(N)nc1N", "target": "scnn1a/scnn1b-a/scnn1g-a (Xenopus laevis, UniProt P51167+P51169+P51171)", "test": "sodium current, open-channel blocker, current noise analysis", "test system": "Xenopus laevis A6 monolayers", "setting": "pH 8.0, room temperature, clamped at 0 mV, together with: 100 mM NaCl", "Kd": "31.2 µM"}
{"Molecule": "Nc1nc2c(ncn2[C@@H]2O[C@@H]3COP(=O)(O)O[C@H]3[C@H]2O)c(=O)[nH]1", "target": "Cyclic nucleotide-gated channel alpha-2 (CNGA2, Bos taurus, UniProt Q03041, E340G)", "test": "channel opening, agonist, single-channel recording", "setting": "E340G mutant", "Kd": "24 ± 12 µM"}
{"Molecule": "O=C(CCCOc1ccc(Cl)cc1Cl)N/N=C/c1cccc2[nH]ncc12", "target": "dxs", "test": "binding, SPR", "Kd": "15 µM"}
{"Molecule": "C[n+]1cccc2cc(C=NNC(=O)c3ccc4ccc5ccc(C(=O)NN=Cc6ccc7c(ccc[n+]7C)c6)nc5c4n3)ccc21", "target": "MYC snap-back G4 DNA", "test": "binding, native ESI-MS", "test system": "100 mM trimethylammonium acetate", "setting": "1 mM KCl", "Kd": "0.058 µM"}
{"Molecule": "O=C(NCCc1ccc(C(F)(F)F)nc1)c1cc2c(s1)CCCC2", "target": "dxs", "test": "binding, SPR", "Kd": "40 µM"}
{"Molecule": "Nc1ncnc2c1ncn2[C@@H]1O[C@H](CSCC[C@H](N)C(=O)O)[C@@H](O)[C@H]1O", "target": "Phenylethanolamine N-methyltransferase (PNMT, Homo sapiens, UniProt P11086)", "test": "fluorescence quenching", "setting": "room temperature", "how to read": "lower = stronger binding", "Kd": "4.3 ± 0.7 µM"}
{"Molecule": "O=Cc1ccccc1B(O)O", "target": "L-Dap", "test": "complex formation", "Kd": "~100 µM"}
{"Molecule": "NC(=O)c1ccc[n+]([C@@H]2O[C@H](COP(=O)(O)OP(=O)(O)OC[C@H]3O[C@@H](n4cnc5c(N)ncnc54)[C@H](O)[C@@H]3O)[C@@H](O)[C@H]2O)c1", "target": "ahcY (Thermotoga maritima, UniProt O51933)", "test": "isothermal titration calorimetry", "setting": "pH 7.5, 293 K, heat-treated enzyme", "Kd": "0.63 ± 0.04 µM"}
{"Molecule": "CC#Cc1ccc(-c2ccccc2)cc1", "target": "Cytochrome P450 2A13", "test": "binding, absorbance", "setting": "pH 7.4", "Kd": "28 µM"}
{"Molecule": "CCC(C)(C)C(=O)O[C@H]1C[C@@H](C)C=C2C=C[C@H](C)[C@H](CC[C@@H]3C[C@@H](O)CC(=O)O3)[C@H]21", "target": "Rgg3 Streptococcus pyogenes", "test": "competition fluorescence polarization", "setting": "together with: FITC-SHP2-C8 10 nM", "Kd": "9.7 µM"}
{"Molecule": "CCCCCCCCCC[N+](CC)(CC)CC", "target": "Cyclic nucleotide-gated channel alpha-1 (CNGA1, Bos taurus, UniProt Q00194)", "test": "cGMP-activated current, blocker, inside-out patch clamp", "test system": "HEK293", "setting": "+80 mV, together with: cGMP 1 mM", "Kd": "21.5 ± 0.6 µM"}
{"Molecule": "C/C1=C2/[N-][C@H]([C@H](CC(N)=O)[C@@]2(C)CCC(=O)NC[C@H](C)OP(=O)([O-])O[C@H]2[C@@H](O)[C@@H](n3cnc4cc(C)c(C)cc43)O[C@@H]2CO)[C@]2(C)N=C(/C(C)=C3N=C(/C=C4N=C1[C@@H](CCC(N)=O)C\\4(C)C)[C@@H](CCC(N)=O)[C@]\\3(C)CC(N)=O)[C@@H](CCC(N)=O)[C@]2(C)CC(N)=O.[CH3-].[Co+3]", "target": "Cyanocobalamin reductase / alkylcobalamin dealkylase (MMACHC, Bos taurus, UniProt Q5E9C8)", "test": "UV-Vis spectroscopy", "setting": "dark conditions", "Kd": "4.7 ± 1 µM"}
{"Molecule": "Nc1ncnc2c1ncn2[C@@H]1O[C@H](COP(=O)(O)OP(=O)(O)O)[C@@H](O)[C@H]1O", "target": "kptA", "test": "binding, ITC", "Kd": "~123 µM and 123 µM"}
{"Molecule": "O=C(NO)c1cnc(NC2(c3ccccc3)CC2)nc1", "target": "MBLAC2 (Homo sapiens, UniProt Q68D91)", "test": "binding, competitor, chemoproteomic pulldown", "test system": "SW-620 MV4-11 lysate", "setting": "1 h, 30 °C", "Kd": "> 31.6 µM"}
{"Molecule": "NCCCc1ccccc1", "target": "Cystic fibrosis transmembrane conductance regulator, pore-binding site (CFTR, Homo sapiens, UniProt P13569, K1250A)", "test": "pore block, patch clamp", "setting": "estimated at 60 mV", "Kd": "10000 µM and ~10000 µM"}
{"Molecule": "Cc1ncc(COP(=O)(O)O)c(C=O)c1O", "target": "Intestinal-type alkaline phosphatase (Homo sapiens, UniProt P09923)", "test": "binding, SPR", "setting": "pH 7.4", "Kd": "782 µM"}
{"Molecule": "CNCc1ccc(-c2[nH]c3cc(F)cc4c3c2CCNC4=O)cc1", "target": "PiB′", "test": "binding, fluorescence titration", "setting": "upper limit", "Kd": "< 0.005 µM"}
{"Molecule": "[I-].[K+]", "target": "SLC4A1 (Homo sapiens, UniProt P02730)", "test": "Cl- exchange, inhibitor, 36Cl flux", "test system": "erythrocytes, external", "setting": "pH 7.2, 0 °C, internal Cl- 129 mM", "Kd": "700 µM"}
{"Molecule": "CC/C(=C(\\c1ccc(O)cc1)c1ccc(OCCN(C)C)cc1)c1ccccc1", "target": "Sulfotransferase 1A1 (SULT1A1, Homo sapiens, UniProt P50225)", "test": "binding, fluorescence titration", "setting": "low-affinity site of E·PAP, together with: 6.0 µM PAP", "Kd": "13 µM"}
{"Molecule": "NC(=O)c1ccc[n+]([C@@H]2O[C@H](COP(=O)([O-])O)[C@@H](O)[C@H]2O)c1", "target": "kptA", "test": "isothermal titration calorimetry", "setting": "17 °C", "Kd": "no binding"}
{"Molecule": "O=C(COc1ccc(Cl)cc1Cl)N/N=C/c1c[nH]c2ccccc12", "target": "dxs", "test": "binding, SPR", "Kd": "150 µM"}
{"Molecule": "O=C(O)c1ccc(Oc2cn(-c3ccc(O)c(F)c3)nn2)cc1", "target": "Macrophage migration inhibitory factor (MIF, Homo sapiens, UniProt P14174)", "test": "cell-free assay, FP", "setting": "pH 7.4", "Kd": "1 to 2 µM and 1.15 µM"}
{"Molecule": "Nc1ncnc2c1ncn2[C@@H]1O[C@H](COP(=O)(O)OP(=O)(O)OP(=O)(O)O)[C@@H](O)[C@H]1O", "target": "CFTR NBD1", "test": "binding, thermal shift", "Kd": "1.2 ± 0.12 µM"}
{"Molecule": "O=P(O)(O)O[C@@H]1C(O)[C@H](OP(=O)(O)O)[C@@H](O)C(O)[C@@H]1O (stereo partly drawn)", "target": "Fermitin family homolog 1, PH domain (Fermt1, Mus musculus, UniProt P59113)", "test": "surface plasmon resonance", "setting": "biotinylated compound immobilised", "Kd": "1660 µM"}
{"Molecule": "O=C(N/N=C/c1ccc(C(F)(F)F)nc1)c1cc2c(s1)CCCC2", "target": "dxs", "test": "binding, SPR", "Kd": "70 µM"}
{"Molecule": "c1ccc2ccccc2c1", "target": "Cytochrome P450 2A13", "test": "binding, absorbance", "setting": "pH 7.4", "Kd": "0.35 µM"}
{"Molecule": "CC(=O)N[C@H]1[C@H](O[C@H]2[C@@H](O)[C@@H](CO)O[C@H](O[C@@H]3[C@H](O)[C@@H](O)[C@H](O[C@H]4[C@H](O)[C@@H](O)[C@H](O)O[C@@H]4CO)O[C@@H]3CO)[C@@H]2O)O[C@H](CO)[C@H](O)[C@@H]1O[C@@H]1O[C@H](CO)[C@H](O)[C@H](O)[C@H]1O[C@@H]1O[C@@H](C)[C@@H](O)[C@@H](O)[C@@H]1O", "target": "Ribonuclease pancreatic (Homo sapiens, UniProt P07998, P47C)", "test": "binding, solid-phase fluorescence binding", "setting": "pH 7.4, PBS, 0.005% Tween, together with: BODIPY-labelled RNase", "Kd": "0.8 ± 0.2 µM"}
{"Molecule": "Nc1ncnc2c1ncn2[C@@H]1O[C@H](COP(=O)(O)OP(=O)(O)O)[C@@H](O)[C@H]1O", "target": "Sodium/potassium-transporting ATPase subunit alpha-1 (ATP1A1, Sus scrofa, UniProt P05024)", "test": "binding, radioligand binding", "test system": "pig membranes", "setting": "pH 7.7, 0 °C, ionic strength 278 mM, together with: NaCl 219 mM", "Kd": "1.606 ± 0.012 µM"}
{"Molecule": "O=C(CCCOc1ccc(Cl)cc1Cl)N/N=C/c1ccc2cc[nH]c2c1", "target": "dxs", "test": "binding, SPR", "Kd": "5 µM"}
{"Molecule": "phosphatidylinositol 4,5-bisphosphate", "target": "Connector enhancer of kinase suppressor of ras 1, PH domain (Homo sapiens, UniProt Q969H4)", "test": "isothermal titration calorimetry", "setting": "together with: diC8 PtdIns phosphate", "Kd": "0.18 µM"}
{"Molecule": "CCCCCCCCCCCCC/C=C/[C@@H](O)[C@H](CO[C@@H]1O[C@H](CO)[C@@H](O[C@@H]2O[C@H](CO)[C@H](O)[C@H](O[C@H]3O[C@H](CO)[C@H](O)[C@H](O)[C@H]3O)[C@H]2O)[C@H](O)[C@H]1O)NC(=O)CCCCCCCCCCCCCCCCCCCCCCCCC", "target": "TRAV10/CD1D, T48C (Homo sapiens, UniProt A0A0B4J240+P15813)", "test": "T-cell receptor binding to complex, surface plasmon resonance", "setting": "25 °C, compound loaded on protein", "Kd": "6.8 µM"}
{"Molecule": "COC1=CC(c2cc3ccccc3[nH]2)=N/C1=C\\c1[nH]c(C)cc1C", "target": "pre-miR-21 RNA", "test": "binding, intrinsic fluorescence", "setting": "together with: 1.0 µM pre-miR-21", "Kd": "0.09 ± 0.02 µM"}
{"Molecule": "Nc1c2ccccc2nc2ccccc12", "target": "voltage-gated sodium channel, Doryteuthis pealeii", "test": "sodium current, blocker, axial-wire voltage clamp", "test system": "pronase-treated giant axon", "setting": "pH 7.3, about 10 °C, at 0 mV, internal application", "Kd": "62 ± 27.7 µM"}
{"Molecule": "Nc1ncnc2c1ncn2[C@@H]1O[C@H](COP(=O)(O)OP(=O)(O)OP(=O)(O)O)[C@@H](O)[C@H]1O", "target": "Tyrosine-protein kinase JAK1, kinase domain (JAK1, Homo sapiens, UniProt P23458)", "Kd": "1.8 µM"}
{"Molecule": "N[C@@H](CCCC=O)C(=O)O", "target": "Saccharopine dehydrogenase [NADP(+), L-glutamate-forming] (LYS9, Saccharomyces cerevisiae, UniProt P38999)", "test": "enzyme activity, substrate", "setting": "pH 7.0, 25 °C, wild type, together with: NADPH and L-glutamate saturating", "Kd": "310 ± 70 µM"}
{"Molecule": "CC[N+](CC)(CC)CC", "target": "Sh (Drosophila melanogaster, UniProt P08510, del6-46)", "test": "potassium current, blocker, patch clamp, Xenopus oocytes", "setting": "holding potential 0 mV, together with: 20 mM internal K+", "Kd": "22000 ± 2800 µM"}
{"Molecule": "TAMRA-ADP", "target": "mutS (Escherichia coli, UniProt P23909, D693N)", "test": "fluorescence anisotropy", "setting": "room temperature, no DNA", "Kd": "0.646 ± 0.14 µM"}
{"Molecule": "11-deoxycorticosterone", "target": "murine anti-cortisol Fab fragment", "test": "native mass spectrometry", "test system": "1.5% DMSO, 0.5% methanol", "Kd": "1.4 ± 0.4 µM"}
{"Molecule": "CC[C@H](C)[C@H](NC(=O)[C@H](Cc1ccc(O)cc1)NC(=O)[C@@H]1CSSC[C@H](NC(=O)[C@@H](CCC(=O)O)NC(=O)[C@H](Cc2ccc(O)cc2)NC(=O)[C@H](CNC(=O)c2ccc(CN(CC(=O)O)C3CCCCC3N(CC(=O)O)CC(=O)O)nc2)NC(=O)c2ccc(CN(CC(=O)O)C3CCCCC3N(CC(=O)O)CC(=O)O)nc2)C(=O)N2C[C@H](O)C[C@H]2C(=O)N[C@@H](Cc2ccc(O)c(Cl)c2)C(=O)NCC(=O)N[C@@H](CC(C)C)C(=O)N1)C(=O)N[C@@H](CCC(N)=O)C(=O)NCc1ccc(CNC(=O)[C@H](CNC(=O)c2ccc(CN(CC(=O)O)C3CCCCC3N(CC(=O)O)CC(=O)O)nc2)NC(=O)c2ccc(CN(CC(=O)O)C3CCCCC3N(CC(=O)O)CC(=O)O)nc2)cc1 (stereo partly drawn)", "target": "fibrin fragment DD(E)", "test": "fluorescence polarization displacement", "setting": "together with: fluorescent fibrin-binding peptide", "Kd": "0.11 µM"}
{"note": "A few entries again:"}
{"Molecule": "C[n+]1cccc2cc(C=NNC(=O)c3ccc4ccc5ccc(C(=O)NN=Cc6ccc7c(ccc[n+]7C)c6)nc5c4n3)ccc21", "target": "MYC snap-back G4 DNA", "test": "binding, native ESI-MS", "test system": "100 mM trimethylammonium acetate", "setting": "1 mM KCl", "Kd": "0.058 µM"}
{"Molecule": "O=C(NCCc1ccc(C(F)(F)F)nc1)c1cc2c(s1)CCCC2", "target": "dxs", "test": "binding, SPR", "Kd": "40 µM"}
